Measured values from different studies.
Each numbered part is a random draw from the data of one study; scales do not carry over between parts.
UniProt P62837, sequence (whole entry, looked up): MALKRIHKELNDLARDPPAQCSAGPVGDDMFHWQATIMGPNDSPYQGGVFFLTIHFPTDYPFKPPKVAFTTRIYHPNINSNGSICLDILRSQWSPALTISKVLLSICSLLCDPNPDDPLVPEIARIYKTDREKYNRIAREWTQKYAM

Block 1 — method: RNA Bind-n-Seq; form: RNA; sample: in vitro; tested at: not given; setting: RNA with constant flanks, ends assumed; baseline: input RNA pool; direction: higher = stronger binding
Target: RING finger protein unkempt homolog, zinc fingers 1-6, GST-SBP tag (UNK, Homo sapiens, UniProt Q9C0B0, residues 30-357)
Constant ends, left off below: GGGAGUUCUACAGUCCGACGAUC … CAACAGAGGAUUGAGCAUCA
Target sequence (chain): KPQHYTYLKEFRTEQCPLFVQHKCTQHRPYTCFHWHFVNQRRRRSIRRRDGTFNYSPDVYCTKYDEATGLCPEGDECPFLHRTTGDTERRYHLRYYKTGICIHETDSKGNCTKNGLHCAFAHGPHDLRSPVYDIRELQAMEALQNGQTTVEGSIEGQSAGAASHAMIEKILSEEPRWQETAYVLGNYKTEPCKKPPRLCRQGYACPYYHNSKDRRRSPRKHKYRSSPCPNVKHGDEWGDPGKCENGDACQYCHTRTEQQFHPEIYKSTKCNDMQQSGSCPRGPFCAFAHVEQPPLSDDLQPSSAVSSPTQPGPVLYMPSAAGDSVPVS
Oligonucleotide	bound/input enrichment
CAGCCAGCAAACUUGAUAGUGCUUUUGGUCCUAGAUGAUUUUUAUCAAAUAAGUGGAUUGAUCCGUUAAGUUCAGGUAAUGUUUAUGUAAUGAAAAACAAAUAGCAUCCUUCUUGUUUCA	0.577 ratio
AGCAAAAAGAACAAUAUAUUUGCUCAGUUCAGGAAGAAUGAUCGAGACAAACAGAAGUUGACCGAGACAGUCGUGAAACAGCUGAGAAGUUUGGUGAAUGGUAUGUCCCAGCACAUGUAG	0.248 ratio
CGUGGAGAUGCAGACCAGGCCAGUAACAUUUUGGCCAGCUUUGGUCUGUCUGCUAGAGACUCCGAUGAACUGAGUCGUUAUCCAGAGGACAAGAUUACUCCUGAGAAUUUGCCCCAAAUC	0.0793 ratio
AAGACAUCACUCAUGAACCAGUAUGUGAAUAAGAAAUUCAGCAAUCAGUACAAAGCCACAACCGGAGCUGACUUUCUGACCAAGGAGGUGAUGGUGGAUGACAGGCUAGUCACAAUGCAG	0.202 ratio
AGUGAUAUUCAUUUGGCAGAACAUCAUAAACAGGUGUUAUAUGAUGGGAAACUUGCAAGCCGCAUUGCCUUUACAUAUAAUGCUAAGGCCACUGAUGCUCAGCUCUGCCUGGAAUCAUCA	0.139 ratio
GUGGUGGCCAUAGGAACGCACUCAGGCAGGUGGUUUGUUCUGGAUGCAGAAACCAGAGAUCCCGUUUCUAUCCACACAGACGGGAAUGAACAGCUCUCUGUGAUGCGCUACUCAAUAGAU	0.175 ratio
AGGUUAAAGAGAAAUGACUUUUUAGGAACUAGACUUGAACGUAUAAUUAAUAUGUGGAACCCGUUUGCUUUUAUAAUUCAUUGUAUCAAGAAGGAGUCAUGUUUUAAAUCCAAGGCAUUG	0.526 ratio
GAAAUAGCAAGUCUUGAUUCAGAGAAUAUAGAUGAAAUUUUAAAUAAUGCUGAUGUUGCUUCCGUAAAUUUUUAUGCUGACUGGUGUCGUUUCAGCCAGAUGUUGCAUCCAAUUUUUGAG	16.7 ratio

Block 2 — method: protein-binding microarray; form: double-stranded DNA, one strand shown; sample: in vitro; tested at: 250 nM; setting: 60-bp whole probe; with: salmon DNA 0.4 mg/ml; baseline: random background probes; direction: higher = stronger binding
Target: Interferon regulatory factor 7, full length, phosphomimetic (IRF7, Homo sapiens, UniProt Q92985, residues 1-503, S101K/S471D/S472D/S475D/S476D/S477D/S483D/S484D/S487D)
Constant ends, left off below: GCCTAGCAC … GTGCTAGGTCTTGATTCGCTTGACGCTGCTG
Construct (chain): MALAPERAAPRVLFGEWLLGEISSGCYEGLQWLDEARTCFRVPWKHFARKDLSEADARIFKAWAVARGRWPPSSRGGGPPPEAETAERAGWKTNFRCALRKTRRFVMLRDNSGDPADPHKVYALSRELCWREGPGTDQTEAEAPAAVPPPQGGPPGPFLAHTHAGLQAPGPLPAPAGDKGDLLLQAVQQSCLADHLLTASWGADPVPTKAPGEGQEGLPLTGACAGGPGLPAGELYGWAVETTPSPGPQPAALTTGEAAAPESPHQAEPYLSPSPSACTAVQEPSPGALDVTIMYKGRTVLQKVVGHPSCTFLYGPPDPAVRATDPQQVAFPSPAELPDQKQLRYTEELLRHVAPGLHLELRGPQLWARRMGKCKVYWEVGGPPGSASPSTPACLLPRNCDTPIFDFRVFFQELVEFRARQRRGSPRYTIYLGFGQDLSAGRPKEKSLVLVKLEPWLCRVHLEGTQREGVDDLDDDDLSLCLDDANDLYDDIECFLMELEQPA
Oligonucleotide	log fluorescence [z-score]
TCACTTTCCCCTTCCTAACT	2.89
GGCGGACTGCTTTTCCTGAC	-0.295
TTAGAGTTCAGACTGGATTA	-0.492
TTAGGACCGGGTTTCGGTTA	8.49
GACGGTCTCCTGCTGCTGAC	-0.359
TTAGGTTCCCTTTTCCTTTG	3.86
GACGGTTCCCTTTCCCTGAC	1.82
TTAGGTTTCCTTTCCCTTTA	4.76

Single results of other studies
Molecule	target	test	test system	conditions	scale	endpoint	result
VTLSLTLPITCHICLGKVRQPVICINNHVFCSICIDLWLKNNSQCPACRVPITPENPCK (OBI1 RING domain (UniProt Q5W0B1))	UBE2D2 UBC core domain (UniProt P62837)	yeast two-hybrid	yeast	mostly zero background	baseline: not given, higher = stronger interaction	lacZ reporter activity	0
CFMYSDFHF	HLA class I histocompatibility antigen, A alpha chain, allele A*26:03 (Homo sapiens, UniProt P04439)	peptide-MHC binding	peptide	concentration not given		binding	inactive

For quick reference, copied from above (block 1):
Oligonucleotide	bound/input enrichment
AGGUUAAAGAGAAAUGACUUUUUAGGAACUAGACUUGAACGUAUAAUUAAUAUGUGGAACCCGUUUGCUUUUAUAAUUCAUUGUAUCAAGAAGGAGUCAUGUUUUAAAUCCAAGGCAUUG	0.526 ratio
GAAAUAGCAAGUCUUGAUUCAGAGAAUAUAGAUGAAAUUUUAAAUAAUGCUGAUGUUGCUUCCGUAAAUUUUUAUGCUGACUGGUGUCGUUUCAGCCAGAUGUUGCAUCCAAUUUUUGAG	16.7 ratio
